Measurements pooled from the literature.
A part holds a random share of what one study measured.
UniProt O15264, sequence (whole entry, looked up): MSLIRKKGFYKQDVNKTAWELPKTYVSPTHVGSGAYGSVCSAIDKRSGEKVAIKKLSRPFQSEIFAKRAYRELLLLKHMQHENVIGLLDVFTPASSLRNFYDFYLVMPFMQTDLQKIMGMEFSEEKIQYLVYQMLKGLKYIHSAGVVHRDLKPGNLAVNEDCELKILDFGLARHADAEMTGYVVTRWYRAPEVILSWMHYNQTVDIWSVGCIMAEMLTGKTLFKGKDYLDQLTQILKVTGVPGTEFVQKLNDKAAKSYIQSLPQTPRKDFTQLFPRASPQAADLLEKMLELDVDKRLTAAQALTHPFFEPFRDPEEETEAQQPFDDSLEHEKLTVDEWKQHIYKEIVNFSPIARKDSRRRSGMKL
UniProt P50750, sequence (whole entry, looked up): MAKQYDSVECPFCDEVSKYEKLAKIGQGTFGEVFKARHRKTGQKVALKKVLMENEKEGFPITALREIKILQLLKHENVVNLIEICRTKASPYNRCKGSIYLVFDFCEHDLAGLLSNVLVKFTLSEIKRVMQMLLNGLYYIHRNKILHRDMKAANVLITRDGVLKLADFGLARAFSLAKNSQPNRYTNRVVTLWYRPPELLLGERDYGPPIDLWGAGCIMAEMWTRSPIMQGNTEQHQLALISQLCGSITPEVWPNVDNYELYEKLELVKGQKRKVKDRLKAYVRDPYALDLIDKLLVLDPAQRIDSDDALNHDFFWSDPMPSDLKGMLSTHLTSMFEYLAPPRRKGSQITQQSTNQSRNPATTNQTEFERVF
UniProt P54756, sequence (whole entry, looked up): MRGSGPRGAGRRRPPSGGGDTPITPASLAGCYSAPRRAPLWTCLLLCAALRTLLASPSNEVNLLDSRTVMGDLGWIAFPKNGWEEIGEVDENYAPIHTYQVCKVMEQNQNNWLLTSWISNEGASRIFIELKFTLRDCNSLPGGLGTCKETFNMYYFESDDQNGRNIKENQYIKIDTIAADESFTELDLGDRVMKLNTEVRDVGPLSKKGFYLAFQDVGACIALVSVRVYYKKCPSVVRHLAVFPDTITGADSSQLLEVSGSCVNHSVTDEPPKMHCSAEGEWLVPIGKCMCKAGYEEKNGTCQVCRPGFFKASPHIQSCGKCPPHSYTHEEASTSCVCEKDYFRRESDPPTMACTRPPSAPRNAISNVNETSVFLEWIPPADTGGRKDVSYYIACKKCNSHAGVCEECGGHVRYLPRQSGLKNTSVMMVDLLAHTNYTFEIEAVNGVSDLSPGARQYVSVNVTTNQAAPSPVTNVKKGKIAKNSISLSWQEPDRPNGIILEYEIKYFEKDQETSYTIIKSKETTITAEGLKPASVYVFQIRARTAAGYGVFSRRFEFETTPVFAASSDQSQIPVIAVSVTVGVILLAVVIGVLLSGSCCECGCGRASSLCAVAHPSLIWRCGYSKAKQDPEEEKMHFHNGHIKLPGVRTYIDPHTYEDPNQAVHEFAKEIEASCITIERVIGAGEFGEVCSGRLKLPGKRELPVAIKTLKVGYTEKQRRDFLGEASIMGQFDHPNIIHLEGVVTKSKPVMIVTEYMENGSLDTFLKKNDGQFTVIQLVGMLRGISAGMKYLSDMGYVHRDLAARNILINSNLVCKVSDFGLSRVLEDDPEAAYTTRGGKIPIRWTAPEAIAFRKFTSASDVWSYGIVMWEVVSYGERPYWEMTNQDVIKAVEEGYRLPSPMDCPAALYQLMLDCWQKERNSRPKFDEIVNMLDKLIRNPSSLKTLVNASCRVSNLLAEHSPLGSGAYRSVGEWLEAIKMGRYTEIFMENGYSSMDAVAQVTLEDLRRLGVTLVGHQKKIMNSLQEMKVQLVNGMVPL
UniProt Q52WX2, sequence (whole entry, looked up): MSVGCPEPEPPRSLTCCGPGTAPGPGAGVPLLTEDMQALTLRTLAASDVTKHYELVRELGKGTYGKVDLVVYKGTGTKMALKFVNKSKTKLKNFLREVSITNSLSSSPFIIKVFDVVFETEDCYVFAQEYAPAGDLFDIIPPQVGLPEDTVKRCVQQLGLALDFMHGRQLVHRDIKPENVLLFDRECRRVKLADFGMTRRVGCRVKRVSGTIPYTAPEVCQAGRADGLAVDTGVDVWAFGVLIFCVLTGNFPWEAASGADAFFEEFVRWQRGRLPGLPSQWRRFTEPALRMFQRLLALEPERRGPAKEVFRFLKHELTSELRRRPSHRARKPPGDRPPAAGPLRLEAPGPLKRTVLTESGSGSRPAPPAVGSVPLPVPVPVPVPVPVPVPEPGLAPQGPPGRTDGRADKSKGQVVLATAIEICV
UniProt P11802, sequence (whole entry, looked up): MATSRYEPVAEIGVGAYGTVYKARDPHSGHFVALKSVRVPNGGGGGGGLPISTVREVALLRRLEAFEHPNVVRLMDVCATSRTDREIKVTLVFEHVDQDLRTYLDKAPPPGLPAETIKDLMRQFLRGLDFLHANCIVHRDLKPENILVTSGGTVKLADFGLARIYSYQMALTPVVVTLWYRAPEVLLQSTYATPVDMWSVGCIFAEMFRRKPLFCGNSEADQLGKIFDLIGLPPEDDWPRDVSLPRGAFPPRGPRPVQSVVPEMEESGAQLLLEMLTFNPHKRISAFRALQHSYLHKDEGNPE
UniProt P57059, sequence (whole entry, looked up): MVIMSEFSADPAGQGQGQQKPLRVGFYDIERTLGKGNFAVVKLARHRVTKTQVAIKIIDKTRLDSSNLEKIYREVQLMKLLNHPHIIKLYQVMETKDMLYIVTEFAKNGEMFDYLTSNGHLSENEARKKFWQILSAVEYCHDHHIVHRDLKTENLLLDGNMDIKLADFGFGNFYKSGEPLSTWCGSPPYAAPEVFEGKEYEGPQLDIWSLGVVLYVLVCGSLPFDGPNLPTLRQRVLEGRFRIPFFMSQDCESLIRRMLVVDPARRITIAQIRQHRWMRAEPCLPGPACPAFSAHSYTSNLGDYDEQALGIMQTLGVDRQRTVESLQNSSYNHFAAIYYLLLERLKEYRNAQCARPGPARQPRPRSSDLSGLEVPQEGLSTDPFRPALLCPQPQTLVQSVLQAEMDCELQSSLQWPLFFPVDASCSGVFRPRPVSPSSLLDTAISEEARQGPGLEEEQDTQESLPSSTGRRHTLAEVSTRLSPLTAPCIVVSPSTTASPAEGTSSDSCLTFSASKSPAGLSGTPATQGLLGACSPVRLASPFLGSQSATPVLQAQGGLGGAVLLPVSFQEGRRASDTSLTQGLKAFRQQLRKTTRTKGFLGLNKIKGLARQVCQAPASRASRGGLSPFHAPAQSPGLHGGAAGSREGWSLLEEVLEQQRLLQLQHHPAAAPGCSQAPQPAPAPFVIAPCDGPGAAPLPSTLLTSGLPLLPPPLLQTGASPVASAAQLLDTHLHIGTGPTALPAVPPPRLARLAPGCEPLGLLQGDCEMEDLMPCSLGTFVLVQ
UniProt P48729, sequence (whole entry, looked up): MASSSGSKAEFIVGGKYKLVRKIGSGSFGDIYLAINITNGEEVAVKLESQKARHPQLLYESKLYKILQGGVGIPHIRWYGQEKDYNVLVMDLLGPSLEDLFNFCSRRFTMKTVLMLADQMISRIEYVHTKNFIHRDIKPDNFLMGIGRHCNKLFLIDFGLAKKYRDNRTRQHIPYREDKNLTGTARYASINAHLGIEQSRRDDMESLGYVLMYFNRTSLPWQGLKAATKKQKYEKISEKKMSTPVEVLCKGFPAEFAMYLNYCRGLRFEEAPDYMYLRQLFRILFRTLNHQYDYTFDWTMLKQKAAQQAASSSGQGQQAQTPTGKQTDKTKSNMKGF
UniProt Q8TD08, sequence (whole entry, looked up): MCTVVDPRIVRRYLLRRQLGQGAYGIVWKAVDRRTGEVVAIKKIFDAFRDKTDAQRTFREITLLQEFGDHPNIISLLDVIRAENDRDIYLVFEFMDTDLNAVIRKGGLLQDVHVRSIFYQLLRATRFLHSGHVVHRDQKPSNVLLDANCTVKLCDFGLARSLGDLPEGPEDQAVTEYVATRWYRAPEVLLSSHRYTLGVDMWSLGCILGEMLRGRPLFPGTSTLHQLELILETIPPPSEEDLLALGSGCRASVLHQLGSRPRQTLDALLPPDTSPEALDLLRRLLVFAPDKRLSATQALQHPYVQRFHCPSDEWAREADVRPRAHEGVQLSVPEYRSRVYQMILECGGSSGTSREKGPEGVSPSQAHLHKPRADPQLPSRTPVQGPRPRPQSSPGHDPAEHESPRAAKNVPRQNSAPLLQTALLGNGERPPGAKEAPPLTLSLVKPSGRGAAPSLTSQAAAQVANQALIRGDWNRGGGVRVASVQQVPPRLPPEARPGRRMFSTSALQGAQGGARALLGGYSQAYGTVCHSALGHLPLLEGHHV
UniProt O14757, sequence (whole entry, looked up): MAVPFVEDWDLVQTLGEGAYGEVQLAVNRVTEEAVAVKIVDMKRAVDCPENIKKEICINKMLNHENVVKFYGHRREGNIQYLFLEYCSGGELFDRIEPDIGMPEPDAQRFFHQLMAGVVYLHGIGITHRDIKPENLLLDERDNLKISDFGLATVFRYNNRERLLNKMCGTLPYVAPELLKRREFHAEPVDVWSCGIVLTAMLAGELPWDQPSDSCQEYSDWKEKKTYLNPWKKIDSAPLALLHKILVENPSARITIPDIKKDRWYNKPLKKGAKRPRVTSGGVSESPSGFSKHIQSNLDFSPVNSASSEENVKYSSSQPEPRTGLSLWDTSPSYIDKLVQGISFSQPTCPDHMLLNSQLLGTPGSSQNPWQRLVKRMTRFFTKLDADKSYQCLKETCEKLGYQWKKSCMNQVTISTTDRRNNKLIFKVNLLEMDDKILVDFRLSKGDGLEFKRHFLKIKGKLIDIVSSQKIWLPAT

Block 1
Target: RING finger protein unkempt homolog, zinc fingers 1-6, SBP tag (UNK, Homo sapiens, UniProt Q9C0B0, residues 30-357)
UniProt Q9C0B0, sequence (30-357, looked up): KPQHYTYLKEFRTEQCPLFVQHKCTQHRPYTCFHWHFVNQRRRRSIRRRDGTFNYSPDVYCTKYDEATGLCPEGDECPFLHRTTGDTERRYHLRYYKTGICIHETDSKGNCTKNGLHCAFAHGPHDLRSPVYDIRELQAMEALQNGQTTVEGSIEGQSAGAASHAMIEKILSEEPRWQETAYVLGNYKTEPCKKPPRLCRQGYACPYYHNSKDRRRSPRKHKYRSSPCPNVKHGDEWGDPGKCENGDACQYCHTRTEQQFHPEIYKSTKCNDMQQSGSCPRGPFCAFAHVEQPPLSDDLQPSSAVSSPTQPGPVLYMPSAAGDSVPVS
Method: RNA Bind-n-Seq
Molecule type: RNA
Matrix: in vitro
Concentration: 100 nM
Notes: RNA with constant flanks, vertebrate orthologous sites, ends assumed
Baseline: input RNA pool
Reading: higher = stronger binding
Constant ends, left off below: GGGAGUUCUACAGUCCGACGAUC … CAACAGAGGAUUGAGCAUCA
Sequence | bound/input enrichment [ratio]
UUCAGGCUCAACUGACUGUUUCACAACAUUCCUUACACAGCUAUUUAACAAGUACAGGGGGAGUUAAUUUUCAGGAUACAUCUAGGCACUCAGCAUUAUCUUGCAGCCCAGUUGAAGAUG | 0.8
CUAUAUGUAGAAAAACGAUUUUCACUGAAACCAUUGUCUAGUUUUUCCCCUAGAGUUUUAUUAGGAGCUCUUUAAUUUUAUACAAGCUUGCUGUGUUGGUCAUCAUUUCUCCAGAGUUAA | 0.962
AAACCUAUAUCGUGGCAUAUAGUCAACAUGGAAGUAGACCAGCUCUGCCGACGUGGAAAUUUAGAUUUUUUUAAUUACGUACUGGGGACAGGUCUUUGUCGCUUUACAUUGCUUCCUAGU | 3.99
UUAAACUGGUAUUUUCGGACCACAUGAAGCUUUUCUCUUUUUUUUUUUUUUUUUUUACAGUUUAGUAUCUGGUUUCUACAUGGAAGACUGAAACUUUCAUGCUUAUUGUUAAAUGUGUUU | 0.324
AUCAUGGACGCUCUUUACCUCCUCAGUGAGGUGGAGUCUCCCUCAGCAUAUGGUGGGCCCCAGAGCUGCUCAGACCUGAUACAUCUUUCCACAUUUUAUUUCUUUCACUCUCACAGUCAG | 0.552
UUACAGUCAUUGAUGGACUCUAUUUUUUUAUUAUUACUUGGACCUUGGUCGUUUUUAUACUAGCAACGAAAAAUGUCUUGUUUUAAUUUGUUUUUUGUUUUUUUUUUUGGGGGGGGGGAA | 4.56
GAGCUAAAGGAGUUAGCAUCUUUAUUUUUGUAUCAAAGAUAAAGGUUAUUUUGAAAUUAUUAGGAUUUUUACACAACUCUGAAAUCUGUUGCUUUUGUAAACAAAUUGUUUGAUCGUAGG | 0.575
CGUGCUUAUGCUCUUCUAUGAGAGAGAUGAAUUGGGGAGAACUGUCUCCGUUUUAUAGAUUAGUUUCUUUCUAAAUUGUGACCAAAAAUAUUUUGCUAUUUCUUUCUUUGUAUAUGGACA | 0.601

Block 2
SMILES: O=C1c2ccccc2-c2nc3nnnn3nc21
Read-out: enzyme activity
Action: inhibitor
Concentration: 0.5 µM
Baseline: control
target | remaining activity [%]
Casein kinase I isoform alpha (CSNK1A1, Homo sapiens, UniProt P48729) | 85.8
Serine/threonine-protein kinase WNK2 (WNK2, Homo sapiens, UniProt Q9Y3S1) | 143
MAP kinase-interacting serine/threonine-protein kinase 2 (MKNK2, Homo sapiens, UniProt Q9HBH9) | 78.2
Ephrin type-A receptor 5 (EPHA5, Homo sapiens, UniProt P54756) | 81.5
Serine/threonine-protein kinase PLK2 (PLK2, Homo sapiens, UniProt Q9NYY3) | 37.3
Mitogen-activated protein kinase 13 (MAPK13, Homo sapiens, UniProt O15264) | 95.6
Mitogen-activated protein kinase kinase kinase kinase 2 (MAP4K2, Homo sapiens, UniProt Q12851) | 79.4
Mitogen-activated protein kinase kinase kinase 10 (MAP3K10, Homo sapiens, UniProt Q02779) | 94.6
Leucine-rich repeat serine/threonine-protein kinase 2 (LRRK2, Homo sapiens, UniProt Q5S007) | 85.6
Mitogen-activated protein kinase 12 (MAPK12, Homo sapiens, UniProt P53778) | 92.5
Tyrosine-protein kinase BTK (BTK, Homo sapiens, UniProt Q06187) | 90.6
Serine/threonine-protein kinase Chk1 (CHEK1, Homo sapiens, UniProt O14757) | 112
Serine/threonine-protein kinase Nek4 (NEK4, Homo sapiens, UniProt P51957) | 96.1
Mast/stem cell growth factor receptor Kit (KIT, Homo sapiens, UniProt P10721) | 22.2
Cyclin-dependent kinase 9, with cyclin T1 (CDK9, Homo sapiens, UniProt P50750) | 97

Block 3
SMILES: CNCc1ccccc1-c1csc([C@H](C)Nc2nc(C)nc3cc(OC)c(OC)cc23)c1
Concentration: 1 µM
target | test | remaining binding [%]
Serine/threonine-protein kinase SIK1 (SIK1, Homo sapiens, UniProt P57059) | competition binding | 100
Mitogen-activated protein kinase kinase kinase 11 (MAP3K11, Homo sapiens, UniProt Q16584) | cell-free assay, competition with immobilised ligand | 100
Cyclin-dependent kinase 4 (CDK4, Homo sapiens, UniProt P11802) | cell-free assay, competition with immobilised ligand | 100
Mitogen-activated protein kinase 15 (MAPK15, Homo sapiens, UniProt Q8TD08) | cell-free assay, competition with immobilised ligand | 100
ALK tyrosine kinase receptor (ALK, Homo sapiens, UniProt Q9UM73) | cell-free assay, competition with immobilised ligand | 73
LIM domain kinase 2 (LIMK2, Homo sapiens, UniProt P53671) | cell-free assay, competition with immobilised ligand | 100
Serine/threonine-protein kinase SBK1 (SBK1, Homo sapiens, UniProt Q52WX2) | cell-free assay, competition with immobilised ligand | 100
Proto-oncogene tyrosine-protein kinase receptor Ret (RET, Homo sapiens, UniProt P07949) | cell-free assay, competition with immobilised ligand | 100
Receptor-type tyrosine-protein kinase FLT3 (FLT3, Homo sapiens, UniProt P36888, R834Q) | cell-free assay, competition with immobilised ligand | 82
Casein kinase I isoform gamma-1 (CSNK1G1, Homo sapiens, UniProt Q9HCP0) | cell-free assay, competition with immobilised ligand | 92
Ribosomal protein S6 kinase alpha-2, C-terminal kinase domain (RPS6KA2, Homo sapiens, UniProt Q15349) | cell-free assay, competition with immobilised ligand | 100
G protein-coupled receptor kinase 3 (GRK3, Homo sapiens, UniProt P35626) | cell-free assay, competition with immobilised ligand | 91
MAP/microtubule affinity-regulating kinase 4 (MARK4, Homo sapiens, UniProt Q96L34) | cell-free assay, competition with immobilised ligand | 100

Block 4
Target: Prothrombin, mature alpha-thrombin (F2, Homo sapiens, UniProt P00734)
Method: aptamer microarray, sandwich
Molecule type: DNA with 2'F-ANA
Matrix: in vitro
Concentration: 200 nM
Notes: whole 15-mer aptamer, many near background
Together with: Cy3 exosite-II aptamer, 400 nM
Reading: higher = stronger binding
Sequence: GGTTGGTGTGGTTGG
Modification | mean fluorescence intensity [a.u.]
2'F-ANA at 2 6 7 8 9 10 11 13 15 | 95.6
2'F-ANA at 5 8 9 10 11 13 14 15 | 47.2
2'F-ANA at 1 2 5 8 9 10 12 13 | 50.1
2'F-ANA at 3 5 6 7 8 9 10 12 15 | 64.4
2'F-ANA at 1 2 3 7 8 9 14 | 82.4
2'F-ANA at 1 2 4 6 8 9 12 13 14 15 | 55.2
2'F-ANA at 3 5 7 9 11 13 14 15 | 54.1
2'F-ANA at 2 4 5 6 8 9 10 12 15 | 54.1
